Measured values from different studies.
Each numbered part is a random draw from the data of one study; scales do not carry over between parts.
Sequence of UniProt Q9BWU1 (whole entry, looked up): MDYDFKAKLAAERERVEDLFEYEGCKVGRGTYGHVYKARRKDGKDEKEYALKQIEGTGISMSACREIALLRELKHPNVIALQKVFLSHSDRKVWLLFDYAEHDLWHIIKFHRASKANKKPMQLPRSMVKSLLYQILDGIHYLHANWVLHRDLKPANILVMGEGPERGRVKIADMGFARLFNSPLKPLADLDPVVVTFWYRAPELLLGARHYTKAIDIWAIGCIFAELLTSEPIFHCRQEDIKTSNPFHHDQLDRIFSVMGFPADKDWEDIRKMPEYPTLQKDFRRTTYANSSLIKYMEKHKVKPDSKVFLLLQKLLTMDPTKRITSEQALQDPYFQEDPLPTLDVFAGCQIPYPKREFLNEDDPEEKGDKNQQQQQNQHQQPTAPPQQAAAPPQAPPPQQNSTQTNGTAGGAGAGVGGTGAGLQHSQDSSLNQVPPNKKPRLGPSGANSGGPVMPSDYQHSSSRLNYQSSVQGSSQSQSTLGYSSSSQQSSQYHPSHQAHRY
Sequence of UniProt P51956 (whole entry, looked up): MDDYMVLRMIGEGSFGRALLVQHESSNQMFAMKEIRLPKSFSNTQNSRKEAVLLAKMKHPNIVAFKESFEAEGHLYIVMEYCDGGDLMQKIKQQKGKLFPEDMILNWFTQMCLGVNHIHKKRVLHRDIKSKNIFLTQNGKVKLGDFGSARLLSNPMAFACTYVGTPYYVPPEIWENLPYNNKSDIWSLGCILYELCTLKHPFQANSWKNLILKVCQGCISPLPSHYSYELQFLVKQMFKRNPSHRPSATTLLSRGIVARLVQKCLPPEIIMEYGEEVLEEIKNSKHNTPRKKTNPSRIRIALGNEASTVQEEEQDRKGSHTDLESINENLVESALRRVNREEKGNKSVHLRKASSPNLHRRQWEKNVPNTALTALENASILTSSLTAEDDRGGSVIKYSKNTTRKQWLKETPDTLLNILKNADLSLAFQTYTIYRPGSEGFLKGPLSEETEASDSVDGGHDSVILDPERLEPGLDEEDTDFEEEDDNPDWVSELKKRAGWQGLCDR
Sequence of UniProt Q15375 (whole entry, looked up): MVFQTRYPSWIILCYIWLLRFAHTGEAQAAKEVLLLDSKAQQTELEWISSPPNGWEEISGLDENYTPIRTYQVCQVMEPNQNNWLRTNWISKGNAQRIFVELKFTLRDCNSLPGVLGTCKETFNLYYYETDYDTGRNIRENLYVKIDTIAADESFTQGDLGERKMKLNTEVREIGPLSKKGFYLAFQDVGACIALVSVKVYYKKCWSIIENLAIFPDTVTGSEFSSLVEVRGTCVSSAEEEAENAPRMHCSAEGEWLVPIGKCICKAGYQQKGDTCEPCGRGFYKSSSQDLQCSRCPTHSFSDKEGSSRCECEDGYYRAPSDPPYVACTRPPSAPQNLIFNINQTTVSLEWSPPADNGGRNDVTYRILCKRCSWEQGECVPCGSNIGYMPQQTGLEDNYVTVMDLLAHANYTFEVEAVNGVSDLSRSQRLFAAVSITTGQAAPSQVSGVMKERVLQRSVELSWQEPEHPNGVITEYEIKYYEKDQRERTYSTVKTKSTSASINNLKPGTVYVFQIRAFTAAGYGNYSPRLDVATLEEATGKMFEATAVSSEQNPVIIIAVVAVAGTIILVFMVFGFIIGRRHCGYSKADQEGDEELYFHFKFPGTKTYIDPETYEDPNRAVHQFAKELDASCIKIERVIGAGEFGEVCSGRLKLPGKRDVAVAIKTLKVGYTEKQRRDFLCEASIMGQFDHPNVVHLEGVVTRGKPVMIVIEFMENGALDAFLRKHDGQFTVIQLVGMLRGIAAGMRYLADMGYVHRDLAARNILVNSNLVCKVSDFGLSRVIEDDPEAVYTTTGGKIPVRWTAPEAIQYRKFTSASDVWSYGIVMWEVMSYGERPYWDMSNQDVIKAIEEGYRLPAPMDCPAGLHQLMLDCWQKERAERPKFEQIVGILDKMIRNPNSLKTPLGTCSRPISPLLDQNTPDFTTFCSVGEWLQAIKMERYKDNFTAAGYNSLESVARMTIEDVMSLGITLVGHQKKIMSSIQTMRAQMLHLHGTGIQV
Sequence of UniProt P07949 (whole entry, unmodified, looked up): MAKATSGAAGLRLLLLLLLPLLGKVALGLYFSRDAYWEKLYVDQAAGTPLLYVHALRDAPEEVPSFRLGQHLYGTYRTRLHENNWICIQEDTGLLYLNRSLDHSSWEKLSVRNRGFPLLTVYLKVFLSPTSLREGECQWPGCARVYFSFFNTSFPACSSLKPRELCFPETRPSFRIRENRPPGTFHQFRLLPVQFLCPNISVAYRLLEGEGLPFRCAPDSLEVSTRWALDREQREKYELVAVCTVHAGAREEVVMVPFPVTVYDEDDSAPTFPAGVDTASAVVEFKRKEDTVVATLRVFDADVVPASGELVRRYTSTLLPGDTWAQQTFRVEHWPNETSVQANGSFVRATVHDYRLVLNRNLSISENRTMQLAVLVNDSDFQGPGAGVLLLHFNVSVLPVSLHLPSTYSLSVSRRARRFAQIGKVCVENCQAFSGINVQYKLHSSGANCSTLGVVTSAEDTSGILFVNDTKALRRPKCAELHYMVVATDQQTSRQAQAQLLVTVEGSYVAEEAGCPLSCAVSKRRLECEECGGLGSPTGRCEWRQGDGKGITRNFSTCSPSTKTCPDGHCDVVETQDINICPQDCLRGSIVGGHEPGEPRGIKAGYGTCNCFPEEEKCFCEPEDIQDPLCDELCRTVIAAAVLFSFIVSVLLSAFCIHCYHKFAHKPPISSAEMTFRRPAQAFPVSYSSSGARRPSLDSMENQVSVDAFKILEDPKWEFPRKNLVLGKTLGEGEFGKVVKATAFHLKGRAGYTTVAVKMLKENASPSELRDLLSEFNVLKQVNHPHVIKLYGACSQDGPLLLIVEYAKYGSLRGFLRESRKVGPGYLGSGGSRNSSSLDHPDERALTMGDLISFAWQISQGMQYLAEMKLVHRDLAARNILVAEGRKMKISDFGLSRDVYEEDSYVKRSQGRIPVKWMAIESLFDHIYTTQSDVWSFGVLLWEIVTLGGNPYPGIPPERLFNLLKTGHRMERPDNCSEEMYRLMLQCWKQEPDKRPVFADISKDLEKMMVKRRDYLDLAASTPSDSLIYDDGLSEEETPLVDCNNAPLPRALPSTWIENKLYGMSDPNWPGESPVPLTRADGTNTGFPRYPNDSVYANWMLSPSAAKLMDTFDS
Sequence of UniProt P29322 (whole entry, looked up): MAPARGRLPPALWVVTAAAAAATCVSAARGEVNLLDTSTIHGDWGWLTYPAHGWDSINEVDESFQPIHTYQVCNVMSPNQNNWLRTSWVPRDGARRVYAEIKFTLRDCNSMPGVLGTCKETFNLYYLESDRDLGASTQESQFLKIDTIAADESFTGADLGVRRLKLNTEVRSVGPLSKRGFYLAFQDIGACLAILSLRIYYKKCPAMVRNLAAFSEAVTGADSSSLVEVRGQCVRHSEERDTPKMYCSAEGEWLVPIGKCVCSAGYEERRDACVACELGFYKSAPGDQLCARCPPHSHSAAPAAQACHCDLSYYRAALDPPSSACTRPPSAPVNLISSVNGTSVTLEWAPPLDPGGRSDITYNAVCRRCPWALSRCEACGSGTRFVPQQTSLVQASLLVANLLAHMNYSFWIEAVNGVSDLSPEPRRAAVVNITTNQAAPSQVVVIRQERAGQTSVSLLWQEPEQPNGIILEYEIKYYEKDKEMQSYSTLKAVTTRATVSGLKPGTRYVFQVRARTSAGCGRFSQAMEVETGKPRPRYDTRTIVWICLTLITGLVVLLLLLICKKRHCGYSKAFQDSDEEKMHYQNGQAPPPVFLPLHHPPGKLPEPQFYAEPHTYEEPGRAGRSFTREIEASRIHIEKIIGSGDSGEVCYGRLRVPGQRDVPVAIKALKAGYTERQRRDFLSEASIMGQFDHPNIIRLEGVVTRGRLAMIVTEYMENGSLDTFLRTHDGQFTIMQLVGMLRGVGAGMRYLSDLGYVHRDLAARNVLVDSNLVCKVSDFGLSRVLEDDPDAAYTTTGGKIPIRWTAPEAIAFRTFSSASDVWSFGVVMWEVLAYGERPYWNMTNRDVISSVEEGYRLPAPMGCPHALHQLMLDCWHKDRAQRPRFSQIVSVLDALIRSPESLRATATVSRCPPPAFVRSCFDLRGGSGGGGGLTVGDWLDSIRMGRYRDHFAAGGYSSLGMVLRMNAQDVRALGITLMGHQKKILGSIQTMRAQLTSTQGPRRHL

Set 1
Organism: Sarcocystis neurona
Read-out: parasite growth
Concentration: 10 µM
Time: 96 h
Notes: second screen
Baseline: untreated
| Structure (SMILES) | log2 fold change |
| --- | --- |
| C[C@H]1COc2c(N3CCN(C)CC3)c(F)cc3c(=O)c(C(=O)O)cn1c23 | 0.12 |
| O=C(NCCO[N+](=O)[O-])c1cccnc1 | 0.5 |
| CO[C@@H]1[C@@H](O[C@@H]2O[C@H](C)[C@@H](O[C@H]3C[C@@](C)(O)[C@@H](OC(=O)CC(C)C)[C@H](C)O3)[C@H](N(C)C)[C@H]2O)[C@@H](CC=O)C[C@@H](C)[C@@H](O)/C=C/C=C/C[C@@H](C)OC(=O)C[C@H]1OC(C)=O | -0.14 |
| COCC1=C(C(=O)OC(C)OC(=O)OC(C)C)N2C(=O)[C@@H](NC(=O)/C(=N\OC)c3csc(N)n3)[C@H]2SC1 (some centres unmarked) | 0.36 |
| CC(=O)[C@H]1CC[C@H]2[C@@H]3C[C@H](C)C4=CC(=O)CC[C@]4(C)[C@H]3[C@@H](O)C[C@]12C | 0.0378 |
| CC(C)OC(=O)CCC/C=C\C[C@@H]1[C@@H](CC[C@@H](O)CCc2ccccc2)[C@H](O)C[C@@H]1O | 0.36 |

Set 2
SMILES: CN1CCN(C(=O)c2ccc(NC(=O)Nc3ccc(N(C)c4ccnc(Nc5ccc(CS(C)(=O)=O)cc5)n4)cc3)cc2)CC1
Read-out: binding
Concentration: 1 µM
| target | test | remaining binding [%] |
| --- | --- | --- |
| Casein kinase I isoform alpha (CSNK1A1, Homo sapiens, UniProt P48729) | – | 85 |
| Ephrin type-A receptor 8 (EPHA8, Homo sapiens, UniProt P29322) | competition with immobilised ligand | 89 |
| Proto-oncogene tyrosine-protein kinase receptor Ret (RET, Homo sapiens, UniProt P07949, V804L) | – | 5.5 |
| Macrophage colony-stimulating factor 1 receptor, autoinhibited (CSF1R, Homo sapiens, UniProt P07333) | – | 8.8 |

Set 3
Species: human
Sample: microsomes or S9
Concentration: 2 µM
Time: 0.5 h
| SMILES | remaining compound [%] |
| --- | --- |
| Cc1cnc(C2CC2)n1C1CCCN(C(=O)c2ccccn2)C1 (centres unmarked) | > 100 |
| OCCN(CC(O)c1ccc(F)c(F)c1)c1ccccc1 (centres unmarked) | 42.3 |
| CCS(=O)(=O)Nc1cccc(-c2cc(=O)n(-c3ccc(Cl)c(C#N)c3)nc2C(C)C)c1 | > 99.9 |

Set 4
Structure (SMILES): CN(C)c1ncnc(-c2ccc3nc(Nc4cc(CN5CCN(C(=O)CC(F)(F)F)CC5)ccn4)[nH]c3c2)c1Cl
Concentration: 1 µM
| target | test | remaining binding [%] |
| --- | --- | --- |
| Cyclin-dependent kinase 13 (CDK13, Homo sapiens, UniProt Q14004) | cell-free assay, competition with immobilised ligand | 84 |
| Ephrin type-A receptor 7 (EPHA7, Homo sapiens, UniProt Q15375) | cell-free assay, competition with immobilised ligand | 100 |
| Cyclin-dependent kinase 19 (CDK19, Homo sapiens, UniProt Q9BWU1) | competition binding | 75 |
| Serine/threonine-protein kinase Nek3 (NEK3, Homo sapiens, UniProt P51956) | cell-free assay, competition with immobilised ligand | 69 |
| Bone morphogenetic protein receptor type-1B (BMPR1B, Homo sapiens, UniProt O00238) | cell-free assay, competition with immobilised ligand | 59 |

Set 5
Target: Ribosomal protein S6 kinase alpha-4 (RPS6KA4, Homo sapiens, UniProt O75676)
Sequence of UniProt O75676 (whole entry, looked up): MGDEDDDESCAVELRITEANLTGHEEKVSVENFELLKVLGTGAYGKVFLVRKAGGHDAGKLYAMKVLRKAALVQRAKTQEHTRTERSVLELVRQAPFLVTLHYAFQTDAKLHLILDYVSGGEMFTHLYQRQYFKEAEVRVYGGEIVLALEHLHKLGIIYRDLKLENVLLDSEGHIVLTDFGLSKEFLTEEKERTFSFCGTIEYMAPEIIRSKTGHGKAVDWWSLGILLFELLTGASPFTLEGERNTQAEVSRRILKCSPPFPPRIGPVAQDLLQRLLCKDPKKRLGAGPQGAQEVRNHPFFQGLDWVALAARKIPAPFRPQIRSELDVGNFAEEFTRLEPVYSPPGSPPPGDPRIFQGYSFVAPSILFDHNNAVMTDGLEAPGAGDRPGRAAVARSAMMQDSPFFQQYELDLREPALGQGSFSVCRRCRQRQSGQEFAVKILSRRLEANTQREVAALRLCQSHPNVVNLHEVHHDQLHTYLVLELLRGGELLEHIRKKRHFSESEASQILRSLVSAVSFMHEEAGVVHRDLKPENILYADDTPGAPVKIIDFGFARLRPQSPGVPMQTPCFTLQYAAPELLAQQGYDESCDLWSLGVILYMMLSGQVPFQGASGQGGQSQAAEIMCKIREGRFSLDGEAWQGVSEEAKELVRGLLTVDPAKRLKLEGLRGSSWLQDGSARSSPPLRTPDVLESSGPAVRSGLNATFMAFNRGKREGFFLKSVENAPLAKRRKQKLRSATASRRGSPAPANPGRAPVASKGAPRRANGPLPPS
Read-out: enzyme activity
Mode: inhibitor
Concentration: 0.5 µM
Baseline: control
| SMILES | remaining activity |
| --- | --- |
| COc1cc2ncnc(Nc3ccc(F)c(Cl)c3)c2cc1OCCCN1CCOCC1 | 104% |
| CO[C@H]1C[C@@H]2CC[C@@H](C)[C@@](O)(O2)C(=O)C(=O)N2CCCC[C@H]2C(=O)O[C@H]([C@H](C)C[C@@H]2CC[C@@H](O)[C@H](OC)C2)CC(=O)[C@H](C)/C=C(\C)[C@@H](O)[C@@H](OC)C(=O)[C@H](C)C[C@H](C)/C=C/C=C/C=C/1C | 91.8% |
| Cn1c2ccccc2c2c3c(c4c5ccccc5n(CCC#N)c4c21)CNC3=O | 29.9% |
| Oc1ccc(-c2nc(-c3ccncc3)c(-c3ccc(F)cc3)[nH]2)cc1 | 95.9% |
| CC(C)[C@H](CO)Nc1nc(Nc2cc(N)cc(Cl)c2)c2ncn(C(C)C)c2n1 | 89.3% |
| O=S(=O)(c1cccc2cnccc12)N1CCCNCC1 | 81.8% |
| CCOC(=O)c1c(C)[nH]c(/C=C2\C(=O)Nc3ccccc32)c1C | 87% |
| COc1cc2nccc(Oc3ccc(NC(=S)NC(=O)c4ccccc4C)cc3)c2cc1OC | 99.7% |
| NCCNc1ncc(C(N)=O)c(Nc2cccc(C(F)(F)F)c2)n1 | 88.1% |
| Nc1[nH]nc2nc3ccccc3nc12 | 79% |
| O=C(CCCc1ccc(-c2ccccc2F)cc1)Nc1ccc(O)cc1 | 103% |
| OCC(O)CCON=C1C(c2c(O)[nH]c3ccccc23)=Nc2ccccc21 (centres unmarked) | 21.7% |
| O=C1NC(=O)C(c2cn(CCCn3ccnc3)c3ccccc23)=C1Nc1ccccc1 | 44.4% |
| Cc1nc(-c2ccccc2)c(-c2ccncc2)o1 | 93.7% |
| COc1ccc(OC)c2c(=S)c3ccccc3[nH]c12 | 93.5% |
| Nc1ccc2ncnc(NCCc3ccc(Oc4ccccc4)cc3)c2c1 | 107% |
| Nc1ncnc2n[nH]c(Nc3ccc(F)cc3)c12 | 114% |
| O=C(Nc1cccc(Nc2cc(Nc3cccc(C(F)(F)F)c3)ncn2)c1)C1CC1 | 100% |
| COc1cc2ncnc(Nc3ccc(Oc4ccccc4)cc3)c2cc1OC | 94.4% |
| C#Cc1cccc(Nc2ncnc3cc(OCCOC)c(OCCOC)cc23)c1 | 96% |
| O=C(O)c1ccc2c3c1cccc3c(=O)n1c3ccccc3nc21 | 110% |
| Cc1ccc(NC(=O)c2ccc(CN3CCN(C)CC3)cc2)cc1Nc1nc(-c2cccnc2)cs1 | 101% |
| O=C1NC(=O)C(c2cn(CCCO)c3ncccc23)=C1c1cnccn1 | 101% |

Set 6
Cell line: HuT78
Concentration: 2 µM
Time: 48 h
Baseline: untreated
| Structure (SMILES) | viability [%] |
| --- | --- |
| O=C1NC(=O)C(c2ccccc2[N+](=O)[O-])=C1Nc1ccc(O)c(Cl)c1 | 118 |
| COc1cc(C(=O)NC2CCN(C)CC2)ccc1Nc1ncc2c(n1)N(C1CCCC1)CC(F)(F)C(=O)N2C | 6.78 |
| COc1cc2nccc(Oc3ccc(NC(=O)NC4CC4)c(Cl)c3)c2cc1C(N)=O | 91.9 |
| COc1cc2ncc(-c3ccccc3)nc2cc1OC | 93.5 |
| Cc1cc(C(C)Nc2ccccc2)c2nc(N3CCOCC3)cc(=O)n2c1 (centres unmarked) | 93.1 |
| Cc1ccc(-n2nc(C(C)(C)C)cc2NC(=O)Nc2ccc(OCCN3CCOCC3)c3ccccc23)cc1 | 99.9 |
